Results gathered from unrelated publications.
Compare with care: the assays were run in different laboratories. ± marks the error that the study gave.
UniProt Q86Z02, sequence (whole entry, looked up): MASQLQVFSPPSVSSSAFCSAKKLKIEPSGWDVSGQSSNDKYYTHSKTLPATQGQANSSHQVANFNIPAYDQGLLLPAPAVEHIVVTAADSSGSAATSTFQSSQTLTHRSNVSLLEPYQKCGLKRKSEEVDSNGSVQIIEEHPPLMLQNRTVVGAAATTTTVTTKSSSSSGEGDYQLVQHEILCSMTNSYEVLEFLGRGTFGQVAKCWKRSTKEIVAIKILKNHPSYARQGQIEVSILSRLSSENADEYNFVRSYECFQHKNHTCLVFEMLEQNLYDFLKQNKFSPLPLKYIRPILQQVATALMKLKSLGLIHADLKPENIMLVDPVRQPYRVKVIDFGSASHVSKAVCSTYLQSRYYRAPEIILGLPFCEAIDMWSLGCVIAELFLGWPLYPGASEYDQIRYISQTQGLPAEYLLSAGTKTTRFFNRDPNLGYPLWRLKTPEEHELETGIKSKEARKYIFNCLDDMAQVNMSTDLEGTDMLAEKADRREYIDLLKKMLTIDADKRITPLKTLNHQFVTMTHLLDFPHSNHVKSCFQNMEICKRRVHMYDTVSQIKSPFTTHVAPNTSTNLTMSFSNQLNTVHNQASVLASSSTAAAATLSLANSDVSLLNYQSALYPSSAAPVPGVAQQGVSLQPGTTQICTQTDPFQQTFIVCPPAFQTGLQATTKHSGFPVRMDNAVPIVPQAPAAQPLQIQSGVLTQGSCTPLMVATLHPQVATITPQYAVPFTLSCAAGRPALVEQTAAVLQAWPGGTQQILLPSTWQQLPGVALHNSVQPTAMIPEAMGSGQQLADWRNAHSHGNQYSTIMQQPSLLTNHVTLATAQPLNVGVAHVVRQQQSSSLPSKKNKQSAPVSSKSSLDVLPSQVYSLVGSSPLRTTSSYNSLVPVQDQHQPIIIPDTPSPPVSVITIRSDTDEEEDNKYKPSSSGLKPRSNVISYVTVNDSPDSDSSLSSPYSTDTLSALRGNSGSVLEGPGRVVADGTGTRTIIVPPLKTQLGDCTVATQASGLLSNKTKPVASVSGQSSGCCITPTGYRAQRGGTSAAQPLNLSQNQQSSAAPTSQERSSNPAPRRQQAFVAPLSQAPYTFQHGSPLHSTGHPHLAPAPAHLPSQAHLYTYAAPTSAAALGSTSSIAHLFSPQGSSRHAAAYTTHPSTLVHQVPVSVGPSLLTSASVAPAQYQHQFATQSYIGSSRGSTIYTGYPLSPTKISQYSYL

SMILES | tested on | test | test system | conditions | scale | endpoint | result
COc1ccccc1-c1n[nH]c2nc(NC3CCN(C(=O)Cc4ccc(F)cc4F)CC3)ncc12 | – | bead binding, competition bead pull-down, item: LMJF.21.1860 | Leishmania donovani extract | 10 µM | baseline: vehicle | relative abundance | 1.11
CC(C)=CCC/C(C)=C/CCn1cc(CC(P(=O)(O)O)P(=O)(O)O)nn1 | – | – | CD-1 mice | intravenous, 0.3 mg/kg, 24 h | – | biliary excretion of dose | not detected
CC(C)[C@H]1NC(=O)[C@H](Cc2ccccc2)NC(=O)[C@@H](C(C)C)NC(=O)[C@@H](C)NC(=O)[C@H](CO)NC(=O)[C@@H](Cc2c(-c3ccc(-c4ccc5ccccc5c4)cc3)[nH]c3ccccc23)NC(=O)[C@@H](CO)NC1=O | – | – | female Sprague-Dawley rat, plasma | intraperitoneal, 20 mg/kg, single dose | – | AUC(0-t) | 3820 ng·h/mL
N=C(N)NCCC[C@H](NC(=O)[C@H](CCCNC(=N)N)NC(=O)[C@H](CCCNC(=N)N)NC(=O)[C@H](CCC(N)=O)NC(=O)[C@H](CCCNC(=N)N)NC(=O)[C@H](CCCNC(=N)N)NC(=O)[C@H](CCCCN)NC(=O)[C@H](CCCCN)NC(=O)[C@H](CCCNC(=N)N)NC(=O)CNC(=O)[C@H](Cc1ccc(O)cc1)NC(=O)[C@H](Cc1ccccc1)NC(=O)[C@H](Cc1ccccc1)NC(=O)[C@H](Cc1ccccc1)NC(=O)Cc1ccc2ccccc2c1)C(=O)O | – | – | C57BL/6 mice | intraperitoneal, 20 mg/kg, 6 h | direction not given | health score | 5
CC[C@H](C)[C@H](NC(=O)[C@H](CCCCN)NC(=O)CNC(=O)[C@H](CC(C)C)NC(=O)[C@H](Cc1ccccc1)NC(=O)[C@H](CCCCN)NC(=O)[C@H](CO)NC(=O)[C@H](Cc1ccccc1)NC(=O)[C@H](Cc1c[nH]c2ccccc12)NC(=O)[C@H](CCC(N)=O)NC(=O)[C@@H](NC(=O)[C@H](Cc1ccccc1)NC(=O)CCCCCNC(=O)CN1CCN(CC(=O)O)CCN(CC(=O)O)CCN(CC(=O)O)CC1)C(C)C)C(=O)N[C@@H](CCC(=O)O)C(=O)N1CCC[C@H]1C(=O)N[C@@H](CC(=O)O)C(=O)N[C@H](C(=O)N[C@@H](CO)C(=O)N[C@@H](CCC(N)=O)C(=O)N[C@H](C(=O)N[C@@H](CCC(N)=O)C(=O)N[C@@H](CC(=O)O)C(=O)N1CCC[C@H]1C(=O)N[C@@H](CC(N)=O)C(=O)N[C@@H](CC(=O)O)C(=O)N[C@@H](CCC(N)=O)C(=O)N[C@@H](Cc1ccc(O)cc1)C(=O)N[C@@H](CCC(=O)O)C(=O)N1CCC[C@H]1C(=O)N[C@@H](Cc1ccccc1)C(=O)O)C(C)C)C(C)C [copper-64 labelled] | – | – | GZMB-/- mouse bearing CT26 tumour, spleen | dose not given, 2 h, checkpoint inhibitor-treated | – | tissue uptake | 0.64 ± 0.1 %ID/g
O=C(CN1C(=O)C2(CCN(C(=O)c3ccc4[nH]ncc4n3)CC2)c2c(Br)cccc21)NCC(F)(F)F | – | – | C57BL/6 mice, male | oral, 10 mg/kg | – | oral bioavailability | 23 ± 7%
COc1ccc(CNc2ccc3c(c2)S(=O)(=O)C=C3)cc1 | – | – | male C57BL/6 mice, blood | intraperitoneal, 20 mg/kg, day 8, group average | – | red cell distribution width CV | 0.15%
CS(C)(=O)=Nc1ccc(-c2ccc(-c3nc4cc(O[C@@H]5CO[C@H]6[C@@H]5OC[C@H]6O)[nH]c4cc3F)cc2)cc1 | Homeodomain-interacting protein kinase 1 (HIPK1, Homo sapiens, UniProt Q86Z02) | enzyme activity, inhibitor | – | 10 µM | – | inhibition | 11%
O=C1NC2(CC2)COc2ncc(F)cc2[C@H]2COCCN2c2ccn3ncc1c3n2 | – | – | Sprague-Dawley rat, female, serum | oral, 10 mg/kg/day, 4 weeks daily, end of treatment | – | pancreatic amylase activity | 1380 ± 366 U/L
CSCC[C@H](N)C(=O)N[C@@H](C)C(=O)N[C@@H](CCCNC(=N)N)C(=O)N[C@@H](CCCNC(=N)N)C(=O)N[C@@H](CC(=O)O)C(=O)N[C@@H](CCCCN)C(=O)N[C@H](C(=O)N[C@@H](CC(=O)O)C(=O)N[C@@H](Cc1ccccc1)C(=O)N[C@@H](C)C(=O)N[C@@H](CCCNC(=N)N)C(=O)N[C@@H](CCCNC(=N)N)C(=O)N[C@@H](CCCNC(=N)N)C(=O)N[C@@H](CCCNC(=N)N)C(=O)NCCCCCC(=O)NCCCCC(NC(=O)CCCCCNC(=O)[C@H](CCCNC(=N)N)NC(=O)[C@H](CCCNC(=N)N)NC(=O)[C@H](CCCNC(=N)N)NC(=O)[C@H](CCCNC(=N)N)NC(=O)[C@H](C)NC(=O)[C@H](Cc1ccccc1)NC(=O)[C@H](CC(=O)O)NC(=O)[C@@H](NC(=O)[C@H](CCCCN)NC(=O)[C@H](CC(=O)O)NC(=O)[C@H](CCCNC(=N)N)NC(=O)[C@H](CCCNC(=N)N)NC(=O)[C@H](C)NC(=O)[C@@H](N)CCSC)[C@@H](C)O)C(=O)NCCCCC(NC(=O)C(CCCCNC(=O)CCCCCNC(=O)[C@H](CCCNC(=N)N)NC(=O)[C@H](CCCNC(=N)N)NC(=O)[C@H](CCCNC(=N)N)NC(=O)[C@H](CCCNC(=N)N)NC(=O)[C@H](C)NC(=O)[C@H](Cc1ccccc1)NC(=O)[C@H](CC(=O)O)NC(=O)[C@@H](NC(=O)[C@H](CCCCN)NC(=O)[C@H](CC(=O)O)NC(=O)[C@H](CCCNC(=N)N)NC(=O)[C@H](CCCNC(=N)N)NC(=O)[C@H](C)NC(=O)[C@@H](N)CCSC)[C@@H](C)O)NC(=O)CCCCCNC(=O)[C@H](CCCNC(=N)N)NC(=O)[C@H](CCCNC(=N)N)NC(=O)[C@H](CCCNC(=N)N)NC(=O)[C@H](CCCNC(=N)N)NC(=O)[C@H](C)NC(=O)[C@H](Cc1ccccc1)NC(=O)[C@H](CC(=O)O)NC(=O)[C@@H](NC(=O)[C@H](CCCCN)NC(=O)[C@H](CC(=O)O)NC(=O)[C@H](CCCNC(=N)N)NC(=O)[C@H](CCCNC(=N)N)NC(=O)[C@H](C)NC(=O)[C@@H](N)CCSC)[C@@H](C)O)C(N)=O)[C@@H](C)O (stereo partly drawn) | – | – | C57BL/6 mouse female, uterus | dose not given, 6 h | baseline: total | mean tissue distribution | 1.33%
CC[C@H](C)[C@H](NC(=O)[C@H](C)NC(=O)[C@H](C)NC(=O)[C@H](CCC(N)=O)NC(=O)CNC(=O)[C@H](CC(C)C)NC(=O)[C@H](Cc1c[nH]cn1)NC(=O)[C@H](CCCCN)NC(=O)[C@H](C)NC(=O)CNC(=O)[C@H](CCCCN)NC(=O)[C@H](CCCNC(=N)N)NC(=O)[C@H](CC(C)C)NC(=O)[C@H](Cc1c[nH]c2ccccc12)NC(=O)[C@H](CCCCN)NC(=O)[C@H](CCCCN)NC(=O)[C@H](Cc1c[nH]c2ccccc12)NC(=O)CN)C(=O)N[C@@H](CCCCN)C(=O)NCC(=O)N[C@@H](CC(C)C)C(=O)N[C@@H](C)C(=O)N[C@@H](CO)C(=O)O | – | – | zebrafish embryos 4 hpf, E3 medium | 24 h | – | chronic toxic concentration | 5 µM
CCCCCCCCCCCCCCCC(=O)N[C@@H](CCC(=O)NCCOCCOCCC(=O)NCCOCCOCCC(=O)NCCCC[C@H](NC(=O)[C@H](CC(=O)O)NC(=O)[C@H](CC(C)C)NC(=O)[C@H](Cc1ccc(O)cc1)NC(=O)[C@H](CCCCN)NC(=O)[C@H](CO)NC(=O)[C@H](Cc1ccc(O)cc1)NC(=O)[C@H](CC(=O)O)NC(=O)[C@H](CO)NC(=O)[C@@H](NC(=O)[C@H](Cc1ccccc1)NC(=O)[C@@H](NC(=O)CNC(=O)[C@H](CCC(N)=O)NC(=O)[C@@H](CO)NC(=O)[C@@H](N)Cc1c[nH]cn1)[C@@H](C)O)[C@@H](C)O)C(=O)N[C@@H](CCCNC(=N)N)C(=O)N[C@@H](CCCNC(=N)N)C(=O)N[C@@H](C)C(=O)N[C@@H](CCC(N)=O)C(=O)N[C@@H](CC(=O)O)C(=O)N[C@@H](Cc1ccccc1)C(=O)N[C@H](C(=O)N[C@@H](CCC(N)=O)C(=O)N[C@@H](Cc1c[nH]c2ccccc12)C(=O)N[C@@H](CC(C)C)C(=O)N[C@@H](CC(C)C)C(=O)N[C@@H](CC(N)=O)C(=O)N[C@H](C(=O)NCC(=O)NCC(=O)N1CCC[C@H]1C(=O)N[C@@H](CO)C(=O)N[C@@H](CO)C(=O)NCC(=O)N[C@@H](C)C(=O)N1CCC[C@H]1C(=O)N1CCC[C@H]1C(=O)N1CCC[C@H]1C(=O)N[C@@H](CO)C(N)=O)[C@@H](C)O)C(C)C)C(=O)O | – | – | Sprague-Dawley rat, female | subcutaneous, 100 µg/kg once daily, 14 days | – | total cholesterol | 0.72 ± 0.13 mmol/L
CC(C)[C@@H]1NC(=O)CNC(=O)[C@H](CC(N)=O)NC(=O)[C@H](CCCNC(=N)N)NC(=O)[C@H](Cc2ccc(O)cc2)NC(=O)[C@H](C(C)C)NC(=O)[C@@H](NC(=O)[C@@H](NC(=O)[C@H](CC(N)=O)NC(=O)[C@H](Cc2c[nH]c3ccccc23)NC(=O)[C@H](C)NC(=O)[C@H](Cc2ccccc2)NC(=O)CNC(=O)[C@H](CCCCN)NC(=O)[C@H](Cc2ccccc2)NC(=O)[C@H](Cc2ccccc2)NC(=O)[C@H](CCCCN)NC(=O)OCC2c3ccccc3-c3ccccc32)C(C)C)CSSC[C@@H](C(=O)N[C@@H](Cc2c[nH]cn2)C(=O)N[C@@H](CCCNC(=N)N)C(=O)N[C@@H](CCCNC(=N)N)C(=O)N[C@@H](C)C(=O)N[C@@H](CC(N)=O)C(N)=O)NC(=O)[C@H](C(C)C)NC(=O)[C@H](CCCNC(=N)N)NC1=O | – | – | ICR mice, blood | intraperitoneal, 10 mg/kg, day 5 | – | neutrophils | 19.5 ± 1.67%
Nc1nonc1-c1nnc2c(n1)-c1ccccc1C2=O | – | – | mouse | intraperitoneal, 20 mg/kg, 3 weeks, 5 times per week | – | body weight and blood counts | no effect
CCCC[C@@H]1NC(=O)[C@H](Cc2ccc(O)cc2)NC(=O)[C@@H]2CCCN2C(=O)[C@H](CC(=O)O)NC(=O)[C@H](C)NC(=O)[C@H](Cc2ccccc2)NC(=O)[C@@H]2CSCCC(=O)N3CN(CN(C3)C(=O)CCSC[C@@H](C(=O)N[C@@H](C)C(N)=O)NC1=O)C(=O)CCSC[C@H](NC(C)=O)C(=O)N[C@@H](CC(C)(C)C)C(=O)N1CCC[C@H]1C(=O)N[C@@H](CCC(=O)O)C(=O)N[C@H](CCCCNC(=O)CCc1cn(CCOCCOCCOCCN(CCOCCOCCOCCC(=O)N[C@H]3CSCCC(=O)N4CN5CN(C4)C(=O)CCSC[C@H](NC(=O)[C@@H](CC(=O)O)NC(=O)[C@H](Cc4cccc6ccccc46)NC(=O)[C@@H]4CCCN4C3=O)C(=O)N[C@@H](CCSC)C(=O)N[C@@H](CCCCNC(=N)N)C(=O)N[C@@H](CC(=O)O)C(=O)N[C@@H](Cc3c[nH]c4ccccc34)C(=O)N[C@@H](CO)C(=O)N[C@@H]([C@@H](C)O)C(=O)N3CCC[C@H]3C(=O)N3C[C@H](O)C[C@H]3C(=O)N[C@@H](Cc3c[nH]c4ccccc34)C(=O)N[C@H](C(N)=O)CSCCC5=O)CCOCCOCCOCCn3cc(CCC(=O)NCCCC[C@H]4NC(=O)[C@H](CCC(=O)O)NC(=O)[C@@H]5CCCN5C(=O)[C@H](CC(C)(C)C)NC(=O)[C@@H](NC(C)=O)CSCCC(=O)N5CN6CN(C5)C(=O)CCSC[C@H](NC(=O)[C@H](Cc5ccc(O)cc5)NC(=O)[C@@H]5CCCN5C4=O)C(=O)N[C@@H](Cc4ccccc4)C(=O)N[C@@H](C)C(=O)N[C@@H](CC(=O)O)C(=O)N4CCC[C@H]4C(=O)N[C@@H](Cc4ccc(O)cc4)C(=O)N[C@@H](CCCC)C(=O)N[C@H](C(=O)N[C@@H](C)C(N)=O)CSCCC6=O)nn3)nn1)C(=O)N1CCC[C@H]1C(=O)N[C@@H](Cc1ccc(O)cc1)C(=O)N2 | – | – | Sprague-Dawley rat | – | – | CL | 8.5 ± 1.5 mL/min/kg

For quick reference, copied from above:
SMILES | tested on | test | test system | conditions | scale | endpoint | result
CC[C@H](C)[C@H](NC(=O)[C@H](CCCCN)NC(=O)CNC(=O)[C@H](CC(C)C)NC(=O)[C@H](Cc1ccccc1)NC(=O)[C@H](CCCCN)NC(=O)[C@H](CO)NC(=O)[C@H](Cc1ccccc1)NC(=O)[C@H](Cc1c[nH]c2ccccc12)NC(=O)[C@H](CCC(N)=O)NC(=O)[C@@H](NC(=O)[C@H](Cc1ccccc1)NC(=O)CCCCCNC(=O)CN1CCN(CC(=O)O)CCN(CC(=O)O)CCN(CC(=O)O)CC1)C(C)C)C(=O)N[C@@H](CCC(=O)O)C(=O)N1CCC[C@H]1C(=O)N[C@@H](CC(=O)O)C(=O)N[C@H](C(=O)N[C@@H](CO)C(=O)N[C@@H](CCC(N)=O)C(=O)N[C@H](C(=O)N[C@@H](CCC(N)=O)C(=O)N[C@@H](CC(=O)O)C(=O)N1CCC[C@H]1C(=O)N[C@@H](CC(N)=O)C(=O)N[C@@H](CC(=O)O)C(=O)N[C@@H](CCC(N)=O)C(=O)N[C@@H](Cc1ccc(O)cc1)C(=O)N[C@@H](CCC(=O)O)C(=O)N1CCC[C@H]1C(=O)N[C@@H](Cc1ccccc1)C(=O)O)C(C)C)C(C)C [copper-64 labelled] | – | – | GZMB-/- mouse bearing CT26 tumour, spleen | dose not given, 2 h, checkpoint inhibitor-treated | – | tissue uptake | 0.64 ± 0.1 %ID/g
N=C(N)NCCC[C@H](NC(=O)[C@H](CCCNC(=N)N)NC(=O)[C@H](CCCNC(=N)N)NC(=O)[C@H](CCC(N)=O)NC(=O)[C@H](CCCNC(=N)N)NC(=O)[C@H](CCCNC(=N)N)NC(=O)[C@H](CCCCN)NC(=O)[C@H](CCCCN)NC(=O)[C@H](CCCNC(=N)N)NC(=O)CNC(=O)[C@H](Cc1ccc(O)cc1)NC(=O)[C@H](Cc1ccccc1)NC(=O)[C@H](Cc1ccccc1)NC(=O)[C@H](Cc1ccccc1)NC(=O)Cc1ccc2ccccc2c1)C(=O)O | – | – | C57BL/6 mice | intraperitoneal, 20 mg/kg, 6 h | direction not given | health score | 5
